Results of several laboratories.
Lines come from different studies, so protocols differ. Numbers after ± are the reported error.

N=C(N)NCCC[C@H](NC(=O)[C@@H]1CCCN1C(=O)[C@H](Cc1ccccc1)NC(=O)[C@@H]1CCCN1C(=O)[C@H](Cc1c[nH]cn1)NC(=O)[C@@H](N)Cc1ccccc1)C(=O)O  Cmax (Sprague-Dawley rat male, plasma; intravenous, 10 mg/kg): 95.8 ± 14.5 ng/mL
Cn1cc(C(N)=O)c(NC2C3CC4CC2CC(O)(C4)C3)c2ccnc1-2 (stereo not drawn)  Cmax (Japanese adults, moderate hepatic impairment, plasma; oral, 150 mg single dose): 110 ng/mL
Cc1ncc2c(n1)CN(C(=O)Nc1nc(-c3cccs3)ccc1N)C2  Cmax (male Sprague-Dawley rats; oral, 30 mg/kg daily, day 14): 1670 ± 184 ng/mL
Cc1noc(C)c1Cn1cc(N2C(=O)CN(Cc3cccc(OS(=O)(=O)O)c3)C2=O)cn1  Cmax (rat Sprague-Dawley male, plasma; oral, 10 mg/kg of parent drug): 2600 ng/mL
CC(C)CNC(=O)/C=C/CCc1ccc2c(c1)OCO2  Cmax (rat, sham-operated, plasma; oral, 50 mg/kg): 73.4 ± 36.2 ng/mL
COc1ccc(N2CCOCC2)c2sc(NC(=O)c3ccnc(CN4CCCC4)c3)nc12  Cmax (Wistar rat, plasma (total); oral, 90 mg/kg/day, 14 days): 25400 ng/mL
CONC(=O)/C=C/c1cccc(S(=O)(=O)Nc2ccccc2)c1  Cmax (patients with moderate liver dysfunction, plasma; intravenous, 400 mg/m^2 belinostat, single 30 min infusion, cycle 1 day -7, mean): 3260 ng/mL
Cc1ccc(/N=N/c2c(O)ccc3ccccc23)c(C)c1  Cmax (Sprague-Dawley rats both sexes, whole blood; oral, 50 mg/kg): 696 ng/mL
COc1cc2oc(-c3ccc(O)cc3)cc(=O)c2c(O)c1[C@@H]1O[C@H](CO)[C@@H](O)[C@H](O)[C@H]1O[C@@H]1O[C@H](CO)[C@@H](O)[C@H](O)[C@H]1O  Cmax (male Sprague-Dawley rat, PCPA-induced insomnia, plasma; oral, 6.8 g/kg): 40.1 ± 17.5 ng/mL
CC1(C)C2CCC1(C)C(OC(=O)/C=C/c1ccc(O)c(O)c1)C2 (stereo not drawn)  Cmax (Sprague-Dawley rat, plasma; oral gavage, 30 mg/kg): 409 ± 92.9 ng/mL
COC(=O)/C=C/C(=O)c1ccc(OC)cc1  Cmax (Sprague-Dawley rat, both sexes, plasma; oral, 100 mg/kg): 290 ± 37.5 ng/mL
C=C(c1ncc(C(=O)O)cn1)c1cc2c(cc1C)C(C)(C)CCC2(C)C  Cmax (rat Sprague-Dawley male, plasma; oral, 100 mg/kg, sesame oil): 44000 ng/mL
CC(C)C[C@H](NC(=O)[C@H](CCCCN)NC(=O)CNC(=O)[C@H](CC(C)C)NC(=O)[C@@H](NC(=O)[C@@H]1CSSC[C@H](N)C(=O)N[C@@H](CO)C(=O)N[C@@H](CC(N)=O)C(=O)N[C@@H](CC(C)C)C(=O)N[C@@H](CO)C(=O)N[C@@H]([C@@H](C)O)C(=O)N1)C(C)C)C(=O)N[C@@H](CO)C(=O)N[C@@H](CCC(N)=O)C(=O)N[C@@H](CCC(=O)O)C(=O)N[C@@H](CC(C)C)C(=O)N[C@@H](Cc1c[nH]cn1)C(=O)N[C@@H](CCCCN)C(=O)N[C@@H](CC(C)C)C(=O)N[C@@H](CCC(N)=O)C(=O)N[C@H](C(=O)N[C@@H](Cc1ccc(O)cc1)C(=O)N1CCC[C@H]1C(=O)N[C@@H](CCCNC(=N)N)C(=O)N[C@H](C(=O)N[C@@H](CC(N)=O)C(=O)N[C@H](C(=O)NCC(=O)N[C@@H](CO)C(=O)NCC(=O)N[C@H](C(=O)N1CCC[C@H]1C(N)=O)[C@@H](C)O)[C@@H](C)O)[C@@H](C)O)[C@@H](C)O  Cmax (ELISA; hairless male Sprague-Dawley rat, serum; subcutaneous, 3 µg, coating dissolved from microneedles): 8 ± 2.9 ng/mL
CC/C=C\C/C=C\C/C=C\C/C=C\C/C=C\CCCCOC(CC)C(=O)O (stereo not drawn)  Cmax (Wistar rat, male, portal vein plasma; oral, 100 mg/kg): 17600 ng/mL
Cc1cc2c(cc1C1(c3ncc(C(=O)O)cn3)CC1)C(C)(C)CCC2(C)C  Cmax (rat Sprague-Dawley male, plasma; oral, 100 mg/kg, sesame oil): 25400 ng/mL
CN1CCN(c2ccc(Nc3ncc(Cl)c(Nc4ccccc4P(C)(C)=O)n3)cc2Br)CC1  Cmax (male Sprague-Dawley rat, plasma; oral, 25 mg/kg): 210 ng/mL
N[C@@H](COc1ccccc1C(F)(F)F)c1ccccc1  Cmax (male Sprague-Dawley rat, serum; oral, 25 mg/kg): 258 ± 2 ng/mL
Cc1noc(C)c1Cn1cc(N2C(=O)CN(Cc3cccc(O[C@@H]4O[C@H](C(=O)O)[C@@H](O)[C@H](O)[C@H]4O)c3)C2=O)cn1  Cmax (rat Sprague-Dawley male, plasma; oral, 10 mg/kg of parent drug): 2540 ng/mL
CN(Cc1ccc(/C=C/C(=O)Nc2ccccc2N)cc1)CC12CC3CC(CC(C3)C1)C2  Cmax (LC-MS/MS; rat, brain; 1 mg/kg): 315 nM
CCNC(=O)[C@@H]1CCCN1C(=O)[C@H](CCCNC(=N)N)NC(=O)[C@H](CC(C)C)NC(=O)[C@@H](CC(C)C)NC(=O)[C@H](Cc1ccc(O)cc1)NC(=O)[C@H](CO)NC(=O)[C@H](Cc1c[nH]c2ccccc12)NC(=O)[C@H](Cc1c[nH]cn1)NC(=O)[C@@H]1CCC(=O)N1  Cmax (Sprague-Dawley rat, male, plasma; subcutaneous, 12.5 mg/kg): 2780 ng/mL
O=C(c1ccccc1)c1cc(O)c(-c2cc(Cl)cc(Cl)c2)c(O)c1  Cmax (male Sprague-Dawley rat, plasma; intravenous, 5 mg/kg): 6230 ± 1670 ng/mL
CC(=O)[CH](C(C)=O)[Pt-2]1([S+](C)C)[O]C(C)=CC(C)=[O+]1 (stereo not drawn)  Cmax (refers to: platinum; rat, plasma; intravenous, dose not given): 90200 ng/mL
Cc1ccccc1/N=N/c1ccc(/N=N/c2c(O)ccc3ccccc23)c(C)c1  Cmax (Sprague-Dawley rats both sexes, whole blood; oral, 50 mg/kg): 1300 ng/mL
O=C(O)c1cccc(S(=O)(=O)Nc2ccccc2)c1  Cmax (patients with moderate liver dysfunction, plasma; intravenous, 400 mg/m^2 belinostat, single 30 min infusion, cycle 1 day -7, mean): 1820 ng/mL

Excerpt of the above:
CONC(=O)/C=C/c1cccc(S(=O)(=O)Nc2ccccc2)c1  Cmax (patients with moderate liver dysfunction, plasma; intravenous, 400 mg/m^2 belinostat, single 30 min infusion, cycle 1 day -7, mean): 3260 ng/mL
Cc1ccc(/N=N/c2c(O)ccc3ccccc23)c(C)c1  Cmax (Sprague-Dawley rats both sexes, whole blood; oral, 50 mg/kg): 696 ng/mL
